Measured values of several laboratories.
Numbered parts are unrelated; each lists some results of a single study. Substitutions count along the parent as printed.
Sequence of UniProt Q9ZSY8 (whole entry, looked up): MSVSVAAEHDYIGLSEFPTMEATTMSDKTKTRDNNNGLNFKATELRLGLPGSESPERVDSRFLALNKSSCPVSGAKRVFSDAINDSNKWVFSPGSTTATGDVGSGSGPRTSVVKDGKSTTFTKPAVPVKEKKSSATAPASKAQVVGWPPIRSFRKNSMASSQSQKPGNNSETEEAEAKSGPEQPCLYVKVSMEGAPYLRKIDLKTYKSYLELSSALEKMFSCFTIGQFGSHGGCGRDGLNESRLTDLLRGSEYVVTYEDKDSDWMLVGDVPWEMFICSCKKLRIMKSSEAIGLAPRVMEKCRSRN
Sequence of UniProt Q9ZTX8 (whole entry, looked up): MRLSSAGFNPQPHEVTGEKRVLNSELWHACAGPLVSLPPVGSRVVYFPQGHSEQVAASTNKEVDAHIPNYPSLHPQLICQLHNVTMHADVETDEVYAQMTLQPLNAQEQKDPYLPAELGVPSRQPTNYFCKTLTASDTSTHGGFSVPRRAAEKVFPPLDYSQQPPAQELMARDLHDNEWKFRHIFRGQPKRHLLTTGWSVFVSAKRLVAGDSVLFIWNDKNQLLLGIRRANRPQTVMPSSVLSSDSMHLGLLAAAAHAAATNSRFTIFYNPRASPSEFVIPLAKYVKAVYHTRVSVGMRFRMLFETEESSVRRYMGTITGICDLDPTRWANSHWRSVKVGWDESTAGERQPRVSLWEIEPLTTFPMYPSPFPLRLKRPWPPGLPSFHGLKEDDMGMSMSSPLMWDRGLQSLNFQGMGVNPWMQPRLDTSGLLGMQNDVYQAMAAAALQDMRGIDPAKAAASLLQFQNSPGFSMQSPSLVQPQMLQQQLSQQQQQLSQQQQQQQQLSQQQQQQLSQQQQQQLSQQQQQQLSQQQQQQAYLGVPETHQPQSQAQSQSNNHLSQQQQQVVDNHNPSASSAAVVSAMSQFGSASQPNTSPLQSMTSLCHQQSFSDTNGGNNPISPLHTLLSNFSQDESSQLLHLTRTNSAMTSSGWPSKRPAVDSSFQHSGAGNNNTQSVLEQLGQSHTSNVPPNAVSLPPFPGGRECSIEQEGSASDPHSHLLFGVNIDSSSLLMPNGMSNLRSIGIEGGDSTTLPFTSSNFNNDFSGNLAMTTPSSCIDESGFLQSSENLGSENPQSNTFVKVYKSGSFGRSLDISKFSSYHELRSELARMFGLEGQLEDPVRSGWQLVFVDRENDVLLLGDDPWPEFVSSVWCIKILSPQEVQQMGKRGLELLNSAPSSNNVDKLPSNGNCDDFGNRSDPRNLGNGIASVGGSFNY
Sequence of UniProt Q94JM3 (whole entry, looked up): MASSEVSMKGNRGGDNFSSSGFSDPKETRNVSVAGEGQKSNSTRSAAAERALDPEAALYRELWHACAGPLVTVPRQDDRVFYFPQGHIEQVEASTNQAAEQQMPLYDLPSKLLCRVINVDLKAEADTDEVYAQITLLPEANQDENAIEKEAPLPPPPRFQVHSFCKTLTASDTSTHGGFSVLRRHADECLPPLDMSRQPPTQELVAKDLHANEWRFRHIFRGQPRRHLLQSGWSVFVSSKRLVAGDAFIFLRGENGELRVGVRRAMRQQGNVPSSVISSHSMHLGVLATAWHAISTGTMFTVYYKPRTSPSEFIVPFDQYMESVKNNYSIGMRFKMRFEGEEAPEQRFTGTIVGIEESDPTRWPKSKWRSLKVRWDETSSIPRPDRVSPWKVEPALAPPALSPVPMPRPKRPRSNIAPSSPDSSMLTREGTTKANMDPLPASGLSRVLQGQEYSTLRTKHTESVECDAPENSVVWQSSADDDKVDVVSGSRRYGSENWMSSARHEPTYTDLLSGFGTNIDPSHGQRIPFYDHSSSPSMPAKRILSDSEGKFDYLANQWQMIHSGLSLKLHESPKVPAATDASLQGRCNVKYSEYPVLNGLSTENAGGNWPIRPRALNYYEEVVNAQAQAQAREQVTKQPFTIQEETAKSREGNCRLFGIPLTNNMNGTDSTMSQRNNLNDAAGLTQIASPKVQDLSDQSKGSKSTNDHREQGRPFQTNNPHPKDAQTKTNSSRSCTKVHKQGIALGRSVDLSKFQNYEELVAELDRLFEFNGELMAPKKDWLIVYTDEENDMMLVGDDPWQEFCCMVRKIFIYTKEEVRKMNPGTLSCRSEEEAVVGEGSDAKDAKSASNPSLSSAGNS
Sequence of UniProt Q8L7G0 (whole entry, looked up): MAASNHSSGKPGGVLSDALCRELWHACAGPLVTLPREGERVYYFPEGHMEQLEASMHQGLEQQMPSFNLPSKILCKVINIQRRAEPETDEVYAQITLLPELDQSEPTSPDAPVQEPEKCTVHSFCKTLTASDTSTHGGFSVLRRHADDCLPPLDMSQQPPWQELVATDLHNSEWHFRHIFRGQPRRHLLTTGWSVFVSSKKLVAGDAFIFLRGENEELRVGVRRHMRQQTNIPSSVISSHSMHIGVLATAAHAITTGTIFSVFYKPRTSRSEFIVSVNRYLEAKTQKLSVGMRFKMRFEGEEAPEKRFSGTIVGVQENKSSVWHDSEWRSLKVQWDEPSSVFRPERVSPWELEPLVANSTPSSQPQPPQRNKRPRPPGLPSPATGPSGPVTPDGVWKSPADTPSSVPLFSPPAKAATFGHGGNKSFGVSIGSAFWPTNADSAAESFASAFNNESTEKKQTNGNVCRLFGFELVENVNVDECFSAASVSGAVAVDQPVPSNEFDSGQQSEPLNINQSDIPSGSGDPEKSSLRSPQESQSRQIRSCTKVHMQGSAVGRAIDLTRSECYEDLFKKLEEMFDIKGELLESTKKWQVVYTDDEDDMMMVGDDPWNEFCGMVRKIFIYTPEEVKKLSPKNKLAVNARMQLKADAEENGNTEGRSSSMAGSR
Sequence of UniProt Q9FX25 (whole entry, looked up): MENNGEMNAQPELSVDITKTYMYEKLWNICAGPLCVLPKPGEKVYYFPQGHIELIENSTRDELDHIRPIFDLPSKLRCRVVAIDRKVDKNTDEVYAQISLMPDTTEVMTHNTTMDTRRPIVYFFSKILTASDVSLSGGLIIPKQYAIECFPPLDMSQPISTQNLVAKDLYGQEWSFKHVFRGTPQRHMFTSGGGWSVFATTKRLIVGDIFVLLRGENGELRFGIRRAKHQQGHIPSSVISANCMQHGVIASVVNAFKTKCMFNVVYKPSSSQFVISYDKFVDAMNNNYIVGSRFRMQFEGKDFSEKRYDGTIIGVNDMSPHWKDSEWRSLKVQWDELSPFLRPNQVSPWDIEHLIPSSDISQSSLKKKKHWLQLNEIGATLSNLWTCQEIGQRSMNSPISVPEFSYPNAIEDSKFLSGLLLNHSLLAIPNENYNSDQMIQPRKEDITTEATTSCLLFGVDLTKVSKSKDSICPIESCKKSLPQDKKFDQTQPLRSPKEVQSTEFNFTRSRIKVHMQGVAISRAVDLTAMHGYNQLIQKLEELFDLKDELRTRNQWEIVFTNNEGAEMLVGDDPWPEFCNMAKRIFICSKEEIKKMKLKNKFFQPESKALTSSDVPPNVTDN
Sequence of UniProt Q9LQE8 (whole entry, looked up): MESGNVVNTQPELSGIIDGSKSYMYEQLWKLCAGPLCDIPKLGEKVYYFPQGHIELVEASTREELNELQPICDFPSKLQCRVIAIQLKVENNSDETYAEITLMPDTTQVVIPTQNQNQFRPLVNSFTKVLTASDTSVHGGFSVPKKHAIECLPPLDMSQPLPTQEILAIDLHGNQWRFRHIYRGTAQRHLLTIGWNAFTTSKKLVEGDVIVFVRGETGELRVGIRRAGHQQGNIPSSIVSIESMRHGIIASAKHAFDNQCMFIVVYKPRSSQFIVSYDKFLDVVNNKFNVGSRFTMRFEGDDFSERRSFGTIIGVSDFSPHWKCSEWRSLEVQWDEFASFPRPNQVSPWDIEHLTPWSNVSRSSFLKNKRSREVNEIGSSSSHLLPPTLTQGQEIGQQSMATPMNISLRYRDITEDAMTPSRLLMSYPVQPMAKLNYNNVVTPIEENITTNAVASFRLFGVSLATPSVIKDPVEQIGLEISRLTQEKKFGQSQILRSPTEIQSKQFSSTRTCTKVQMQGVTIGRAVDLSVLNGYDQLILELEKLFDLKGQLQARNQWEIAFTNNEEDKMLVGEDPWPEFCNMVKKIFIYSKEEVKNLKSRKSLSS

Series 1
Sequence: B1 (IAA12)
Method: two-hybrid
Reference: out of 4 tests
Reading: higher = firmer interaction
B1: IAA12 (Arabidopsis thaliana, UniProt Q38830); chain MRGVSELEVGKSNLPAESELELGLGLSLGGGAWKERGRILTAKDFPSVGSKRSAESSSHQGASPPRSSQVVGWPPIGLHRMNSLVNNQAMKAARAEEGDGEKKVVKNDELKDVSMKVNPKVQGLGFVKVNMDGVGIGRKVDMRAHSSYENLAQTLEEMFFGMTGTTCREKVKPLRLLDGSSDFVLTYEDKEGDWMLVGDVPWRMFINSVKRLRIMGTSEASGLAPRRQEQKDRQRNNPV
partner	positive tests
IAA13 (Arabidopsis thaliana, UniProt Q38831)	2
ARF13 (Arabidopsis thaliana, UniProt Q9FX25)	0
ARF6 790-935 (Arabidopsis thaliana, UniProt Q9ZTX8)	1
ARF1 538-665 (Arabidopsis thaliana, UniProt Q8L7G0)	0
ARF14 497-605 (Arabidopsis thaliana, UniProt Q9LQE8)	0
ARF2 727-859 (Arabidopsis thaliana, UniProt Q94JM3)	0
IAA27 (Arabidopsis thaliana, UniProt Q9ZSY8)	1

Series 2
Target: CCND3, cyclin fold, Cln2 fusion (human)
Method: yeast growth competition, sequencing
Matrix: yeast
Setting: weak parent motif
Reference: not given
Reading: higher = stronger binding
Parent: SCAPER docking peptide (human); SNARRSLNFGGST; partner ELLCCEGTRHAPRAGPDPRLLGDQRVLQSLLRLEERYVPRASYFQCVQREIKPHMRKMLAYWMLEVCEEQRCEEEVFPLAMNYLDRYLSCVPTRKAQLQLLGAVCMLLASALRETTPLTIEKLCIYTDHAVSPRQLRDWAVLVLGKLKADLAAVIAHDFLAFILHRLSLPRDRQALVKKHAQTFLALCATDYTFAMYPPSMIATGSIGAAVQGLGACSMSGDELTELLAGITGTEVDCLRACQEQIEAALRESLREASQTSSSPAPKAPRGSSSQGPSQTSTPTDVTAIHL
Change	normalised enrichment score
SNARCSLNFGGST [R5C]	0.056
MNARRSLNFGGST [S1M]	0.0957
SNARRSLNYGGST [F9Y]	0.109
SNARRSLNFGGKT [S12K]	0.119
SNARRSLNFGFST [G11F]	0.105
SNARMSLNFGGST [R5M]	0.232
SNARRSLNFGGAT [S12A]	0.182
SNARRSLNFIGST [G10I]	0.105
SNAVRSLNFGGST [R4V]	0.129
SNAYRSLNFGGST [R4Y]	0.0343
SNNRRSLNFGGST [A3N]	0.24
SNLRRSLNFGGST [A3L]	0.0903
SNAARSLNFGGST [R4A]	0.116
SNARSSLNFGGST [R5S]	0.204
SYARRSLNFGGST [N2Y]	0.119
SNARPSLNFGGST [R5P]	0.125
SNSRRSLNFGGST [A3S]	0.156
SNARRSINFGGST [L7I]	0.12
SPARRSLNFGGST [N2P]	0.127
SKARRSLNFGGST [N2K]	0.0564

Series 3
Target: Sal-like protein 4, full length isoform A (SALL4, Homo sapiens, UniProt Q9UJQ4, residues 1-1053)
Sequence of UniProt Q9UJQ4 (whole entry, looked up): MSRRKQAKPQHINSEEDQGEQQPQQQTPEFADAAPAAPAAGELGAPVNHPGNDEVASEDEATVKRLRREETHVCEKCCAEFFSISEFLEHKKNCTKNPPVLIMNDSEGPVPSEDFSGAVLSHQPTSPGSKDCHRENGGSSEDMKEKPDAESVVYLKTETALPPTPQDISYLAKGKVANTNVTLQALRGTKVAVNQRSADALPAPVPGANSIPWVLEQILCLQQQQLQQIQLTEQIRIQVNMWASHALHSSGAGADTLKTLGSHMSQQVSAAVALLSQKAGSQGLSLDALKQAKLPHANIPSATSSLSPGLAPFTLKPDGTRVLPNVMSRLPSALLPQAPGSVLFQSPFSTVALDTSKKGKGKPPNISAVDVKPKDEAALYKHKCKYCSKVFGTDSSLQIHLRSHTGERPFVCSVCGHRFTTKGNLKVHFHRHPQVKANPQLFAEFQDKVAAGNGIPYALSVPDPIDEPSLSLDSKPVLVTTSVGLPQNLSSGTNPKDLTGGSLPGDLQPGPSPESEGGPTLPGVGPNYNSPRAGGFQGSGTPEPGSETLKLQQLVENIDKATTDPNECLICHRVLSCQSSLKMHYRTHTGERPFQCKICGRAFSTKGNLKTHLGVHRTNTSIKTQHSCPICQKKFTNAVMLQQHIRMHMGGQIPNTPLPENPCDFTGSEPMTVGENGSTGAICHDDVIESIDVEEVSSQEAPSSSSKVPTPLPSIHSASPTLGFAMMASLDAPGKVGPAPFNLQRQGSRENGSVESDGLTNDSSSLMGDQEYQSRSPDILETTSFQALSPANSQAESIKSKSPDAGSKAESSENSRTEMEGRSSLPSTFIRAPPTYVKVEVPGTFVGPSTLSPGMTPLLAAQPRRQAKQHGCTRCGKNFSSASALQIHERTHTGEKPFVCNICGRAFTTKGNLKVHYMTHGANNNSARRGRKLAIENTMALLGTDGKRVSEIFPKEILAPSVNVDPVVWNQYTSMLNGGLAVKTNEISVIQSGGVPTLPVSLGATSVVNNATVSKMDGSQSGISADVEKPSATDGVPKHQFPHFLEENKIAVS
Method: universal PBM
Form: double-stranded DNA, one strand shown
Matrix: in vitro
Tested at: 600 nM
Setting: 8-mer, flanks averaged, mean of replicates
Reading: higher = stronger binding
Strand	E-score
AGTTTGAT	0.103
CCTCGGCG	-0.337
TCAGAGCA	-0.145
AACCTGTC	-0.0893
CTATGAGC	0.0616
GGGCAATA	0.115
GAGAACGC	-0.102
TAGAAATA	0.308
AATTGTGT	0.11
ACAATGTG	0.125
GGCTGAAC	-0.236
ACGCAGGG	-0.191
CCACGCGG	-0.407
GCTTCCAA	-0.0128
GCGGTTAC	-0.106
ACCCTCGG	-0.272
ACTCTACT	0.156
AGCGACGC	-0.204
GGGTCACA	-0.266
ATTTGATA	0.324
GGACCGAA	0.0298
AGGAATTG	0.157
AAGATCAC	-0.0379
CGCCAAGC	-0.238
AGTTGCAC	-0.146

Series 4
Target: Histone acetyltransferase KAT6A, winged helix 2, GST fusion (KAT6A, Homo sapiens, UniProt Q92794, residues 85-181)
Method: protein binding microarray
Form: double-stranded DNA, one strand shown
Matrix: in vitro
Tested at: not given
Setting: 8-mer, flanks averaged, mean of 2 arrays, mostly near background
Reference: not given
Reading: higher = stronger binding
Target sequence (chain): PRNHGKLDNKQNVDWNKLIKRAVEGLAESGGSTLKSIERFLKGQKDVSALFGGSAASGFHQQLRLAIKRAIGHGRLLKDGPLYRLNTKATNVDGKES
Strand	E-score
GTCCGTGA	-0.0114
CATTGTTC	-0.0423
TAATATGA	-0.0504
TCGATTAA	-0.0632
ATTGTCTG	0.00874
ATCTCCTG	0.0725
ATCTCTAC	-0.0746
AAAAAGGC	-0.0663
ATGGTTAA	-0.113
AAGCACGC	0.0563
ATCATGGA	-0.0146
CCCCACTC	-0.081
AAGGCTAC	0.00752
CGAGATCG	0.0524
CCGTAACA	0.0226
CCTCTTAG	0.169
CTAGATCC	-0.0673
GATACCGA	-0.0221
ATAAGACC	-0.204
TAGTTATA	-0.0612
ACTAAGTA	-0.0961
CCTTCACG	0.0166
CCAGTTTC	-0.0031
ACGACAGG	0.158

Series 5
Target: ABI1, truncated, D143A, DHFR fusion (Arabidopsis thaliana)
Method: DHFR PCA, deep sequencing
Matrix: yeast
Setting: methotrexate growth selection, single substitutions
Added: (+)-ABA 2500 µM
Reference: wild-type fitted maximum
Reading: higher = stronger binding
Parent: PYL1, truncated, DHFR fusion (Arabidopsis thaliana); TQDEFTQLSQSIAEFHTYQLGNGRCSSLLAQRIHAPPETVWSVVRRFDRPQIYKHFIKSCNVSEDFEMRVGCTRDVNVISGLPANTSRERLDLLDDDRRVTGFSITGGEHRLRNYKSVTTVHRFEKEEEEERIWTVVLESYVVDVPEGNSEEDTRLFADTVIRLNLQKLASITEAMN
Change	relative binding score
T86L	92.3%
S9H	109%
R132H	104%
D159H	80.2%
L28Y	91.8%
S42Q	109%
Y115M	92.6%
L138P	-10%
E139H	93%
E109C	94.8%
G21V	96.2%
R69A	92.2%
E147A	97.2%

Series 6
Target: JUNB, bZIP domain (human)
Method: DHFR protein complementation
Matrix: yeast
Setting: single substitutions, most at no-binding floor
Reference: wild-type JUN-FOS pair
Reading: higher = stronger binding
Parent: JUN, bZIP domain (human); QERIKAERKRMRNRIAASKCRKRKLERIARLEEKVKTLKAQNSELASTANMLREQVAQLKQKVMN; partner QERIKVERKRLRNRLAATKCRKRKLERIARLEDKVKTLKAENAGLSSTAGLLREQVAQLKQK
Change	binding fitness
N42I	-1.5 natural log
R53Q	-1.27 natural log
Q41T	-1.33 natural log
S43G	-1.19 natural log
A46F	-1.36 natural log
K34Q	-0.755 natural log
V35R	-1.38 natural log
R53H	-1.39 natural log
M51G	-1.18 natural log
L45R	-1.43 natural log
A46N	-1.36 natural log
S47K	-0.749 natural log
A49W	-1.41 natural log
V35K	-1.27 natural log
A57K	-1.1 natural log
E54N	-1.36 natural log
K36W	-1.46 natural log
E32I	-1.34 natural log
N42S	-1.52 natural log
E32N	-1.37 natural log
L52E	-1.64 natural log
E54H	-1.22 natural log
A40W	-1.38 natural log
I28T	-1.46 natural log
T37P	-1.49 natural log

Series 7
Target: TAR DNA-binding protein 43, full length, His tag (TARDBP, Homo sapiens, UniProt Q13148, residues 1-414)
Method: RNA Bind-n-Seq
Form: RNA
Matrix: in vitro
Tested at: 20 nM
Setting: 6-mer, flanks averaged, single round
Added: 150 mM KCl
Reference: input library
Reading: higher = stronger binding
Strand	6-mer enrichment (R)
CCGGAA	0.839
GCAGAG	1.81
GUUGAU	0.773
GUAUGA	1.22
ACGACA	0.661
UCUCUA	0.537
CAACAA	0.807
CGCCAC	0.719
GAUCAA	0.661
UGUUCG	0.76
ACCCAC	0.658
AGCGUA	0.809
GGGGGC	8.16
GGGUUA	1.66
AAGAAG	1.01
UAGCGC	0.812
AGGCAU	0.823
AGAAGA	0.922
AUGCAA	0.702
GUAAAU	0.694
ACUUUC	0.555
AGUCUG	0.79
UCGUAA	0.587

Some of these lines once more (series 4):
Strand	E-score
GATACCGA	-0.0221
CCTTCACG	0.0166
CTAGATCC	-0.0673
ATAAGACC	-0.204
CCCCACTC	-0.081
ATGGTTAA	-0.113
ATTGTCTG	0.00874
